# Measured values from different studies.
# Lines come from different studies, so protocols differ. Values joined by “and” are separate records of one study, mostly repeats; a detail may differ. ± marks the error that the study gave.
SMILES,assay,test system,conditions,how to read,quantity,value
Cc1ccc(-c2oc3ccccc3c(=O)c2OCc2ccccc2)cc1,,diabetic rat,"7.5 mg/kg, p-nitrophenyl β-glucoside induced",,serum alkaline phosphatase,192 ± 4.05 IU
COc1cc(C(=O)OCCCN2CCCN(CCCOC(=O)c3cc(OC)c(OC)c(OCc4ccc([N+](=O)[O-])cc4)c3)CC2)cc(OC)c1OC,licking and flinching,"mouse, formalin pain","intrathecal, 1 to 100 nmol",,formalin pain phase 2,decreased
Cc1cc(O)cc(O)c1C(=O)c1c2c3c(c(O)cc(C)c3oc1=O)C(=O)c1c(O)cc(O)cc1-2,,"Bel-7402 xenograft, mouse","intraperitoneal, 28 mg/kg daily, day 21",,tumour volume,803 ± 168 mm³
CC[C@H]1[C@@H](O)[C@@H]2[C@H](CC[C@]3(C)[C@@H]([C@H](C)CCOS(=O)(=O)[O-])CC[C@@H]23)[C@@]2(C)CC[C@@H](O)C[C@@H]12.[Na+],EchoMRI,ob/ob NASH mouse model,"oral, 3 mg/kg once daily, before treatment, baseline of 8 week study",relative to: body weight,whole-body lean mass,30.3 ± 0.6%
COc1ccc(C2CC(c3ccc(C)cc3)=Nc3ccccc3S2)cc1OC (stereo not drawn),,"Wistar rat, STZ-induced diabetes","oral, 10 mg/kg once daily, day 14",,blood glucose,188 mg/dL
CCCC[C@H](NC(=O)[C@@H](NC(=O)[C@H](CC(=O)O)NC(=O)[C@H](CCC(N)=O)NC(=O)[C@H](CC(C)C)NC(=O)[C@H](CC(C)C)NC(=O)[C@H](CCCN)NC(=O)[C@H](CCCNC(=N)N)NC(=O)[C@H](C)NC(=O)[C@H](CO)NC(=O)[C@H](CC(C)C)NC(=O)[C@H](CCC(N)=O)NC(=O)[C@H](CC)NC(=O)[C@H](CC(C)C)NC(=O)[C@@H](NC(=O)[C@H](CCCN)NC(=O)[C@H](CCCNC(=N)N)NC(=O)[C@H](Cc1ccc(O)cc1)NC(=O)[C@H](CO)NC(=O)[C@H](CCC(N)=O)NC(=O)[C@@H](NC(=O)[C@H](Cc1ccccc1)NC(=O)[C@@H](NC(=O)[C@H](C)NC(=O)[C@H](CC(=O)O)NC(=O)[C@H](C)NC(=O)CCc1ccc(O)cc1)[C@@H](C)CC)[C@@H](C)O)C(C)C)[C@@H](C)CC)C(=O)N[C@@H](CC(=O)O)C(=O)N[C@@H](CCCNC(=N)N)C(=O)NCCCCC(N)=O,"GH release, ELISA","male Sprague-Dawley rat, anaesthetised, serum","subcutaneous, 3 µg/kg, 0 min",,serum GH level,31.5 ± 3.4 ng/mL
COc1ccc(-c2oc3ccccc3c(=O)c2OCc2ccccc2)cc1,,diabetic rat,"5 mg/kg, 28 days, p-nitrophenyl β-glucoside induced",,serum LDL cholesterol,102 ± 3.19 mg/dL
CCCC[C@H](NC(=O)[C@@H](NC(=O)[C@H](CC(=O)O)NC(=O)[C@H](CCC(N)=O)NC(=O)[C@H](CC(C)C)NC(=O)[C@H](CC(C)C)NC(=O)[C@H](CCCN)NC(=O)[C@H](CCCNC(=N)N)NC(=O)[C@H](C)NC(=O)[C@H](CO)NC(=O)[C@H](CC(C)C)NC(=O)[C@H](CCC(N)=O)NC(=O)[C@H](CC)NC(=O)[C@H](CC(C)C)NC(=O)[C@@H](NC(=O)[C@H](CCCN)NC(=O)[C@H](CCCNC(=N)N)NC(=O)[C@H](Cc1ccc(O)cc1)NC(=O)[C@H](CO)NC(=O)[C@H](CC(N)=O)NC(=O)[C@@H](NC(=O)[C@H](Cc1ccccc1)NC(=O)[C@@H](NC(=O)[C@H](C)NC(=O)[C@H](CC(=O)O)NC(=O)[C@@H](CC)NC(=O)CCc1ccc(O)cc1)[C@@H](C)CC)[C@@H](C)O)C(C)C)[C@@H](C)CC)C(=O)N[C@@H](CO)C(=O)N[C@@H](CCCNC(=N)N)C(=O)NCCCC(N)=O,"GH release, ELISA","male rat, anaesthetised, serum","intravenous, 1 µg/kg, 0 min",,serum GH level,25.7 ± 6.3 ng/mL
Clc1ccc(C(c2c[nH]c3ccccc23)c2c[nH]c3ccccc23)cc1,,"mice, MPTP/probenecid Parkinson model, striatum","oral, 25 mg/kg daily, 14 days",relative to: saline control,loss of TH+ fibres,62.9% and 63%
Cc1cc(Nc2cc3ncccc3c(N[C@@H]3C[C@H]4CC[C@@H](C3)N4CCC#N)n2)n[nH]1,item: rectal bleeding,"human, moderate to severe ulcerative colitis","20 mg, day 28",,patients with improvement,30%
COc1ccc2c(c1)c(CC(=O)OCC(=O)c1ccccc1)c(C)n2C(=O)c1ccc(Cl)cc1,,"BALB/c mice, acetic acid writhing","intraperitoneal, 30 mg/kg, 20 min count",,writhing count,9.33 ± 1.33
COc1ccc(S(=O)(=O)N2CCc3ccccc3C2)cc1N1CCN(C(=O)c2ccc(F)cc2C(F)(F)F)CC1,,6-OHDA lesioned rats,"0.1 µg/24 h, 12 weeks post lesion",relative to: lesioned over intact side,TH-ir cells in SNpc,17.2 ± 3.3%
CCCC[C@H](NC(=O)[C@@H](NC(=O)[C@H](CC(=O)O)NC(=O)[C@H](CCC(N)=O)NC(=O)[C@H](CC(C)C)NC(=O)[C@H](CC(C)C)NC(=O)[C@H](CCCN)NC(=O)[C@H](CCCNC(=N)N)NC(=O)[C@H](C)NC(=O)[C@H](CO)NC(=O)[C@H](CC(C)C)NC(=O)[C@H](CCC(N)=O)NC(=O)[C@H](CC)NC(=O)[C@H](CC(C)C)NC(=O)[C@@H](NC(=O)[C@H](CCCN)NC(=O)[C@H](CCCNC(=N)N)NC(=O)[C@H](Cc1ccc(O)cc1)NC(=O)[C@H](CO)NC(=O)[C@H](CCC(N)=O)NC(=O)[C@@H](NC(=O)[C@H](Cc1ccccc1)NC(=O)[C@@H](NC(=O)[C@H](C)NC(=O)[C@H](CC(=O)O)NC(=O)[C@H](C)NC(=O)[C@H](Cc1ccc(O)cc1)NC)[C@@H](C)CC)[C@@H](C)O)C(C)C)[C@@H](C)CC)C(=O)N[C@@H](CC(=O)O)C(=O)NCCCCNC(=N)N,"GH release, ELISA","male rat, anaesthetised, serum","intravenous, 1 µg/kg, 15 min",,serum GH level,250 ± 58.1 ng/mL
CN1CCC[C@]1(C)/C=C/S(=O)(=O)NC(=O)Nc1c2c(cc3c1CCC3)CCC2,item: IL-1β,"human, whole blood ex vivo","oral, dose not given, single ascending dose, added: LPS and ATP",,inhibition,> 90%
CCCCCCOC(=O)Cc1c(C)n(C(=O)c2ccc(Cl)cc2)c2ccc(OC)cc12,acetic acid writhing test,BALB/c mouse,"intraperitoneal, 10 mg/kg",relative to: negative control,analgesia,60.8%
Cc1ncc([N+](=O)[O-])n1CCOCc1nnc(SCC(=O)c2ccc(Cl)cc2)o1,,,"50 µg/mL, 45 min",,DPPH scavenging,37.1 ± 0.7%
O=c1c(OCc2ccccc2)c(-c2cccc([N+](=O)[O-])c2)oc2ccccc12,,diabetic rat,"7.5 mg/kg, p-nitrophenyl β-glucoside induced",,serum alanine aminotransferase,40.9 ± 2.96 IU
Cc1ccc(C(=O)Nc2ccc(CP(=O)(O)O)cc2CP(=O)(O)O)cc1NC(=O)c1cccc(NC(=O)Nc2cccc(C(=O)Nc3cc(C(=O)Nc4ccc(CP(=O)(O)O)cc4CP(=O)(O)O)ccc3C)c2)c1,,human plasma,423 µM,,APTT,73.2 ± 7.6 s
"CC[C@@]1(c2cccc(C(F)(F)F)c2)C2=C(Nc3n[nH]cc31)[C@H](F)C(C)(C)CC2=O (single isomer, unassigned)",kinobead chemoproteomics,"rat, postnatal day 10, brain","60 mg/kg, 3 h, target engagement above 70%, excluding GSK3α, of 251 kinases",,number of off-target kinases,6
CC(C)(O)c1ccc(N2Cc3c(ccnc3-c3ccc(F)cc3OCC(F)(F)F)C2=O)cc1,,"Gaucher disease mouse model, plasma","10 mg/kg, 2 months once daily",relative to: vehicle,glucosylsphingosine level,58 ± 6%
CCCC[C@H](NC(=O)[C@@H](NC(=O)[C@H](CC(=O)O)NC(=O)[C@H](CCC(N)=O)NC(=O)[C@H](CC(C)C)NC(=O)[C@H](CC(C)C)NC(=O)[C@H](CCCN)NC(=O)[C@H](CCCNC(=N)N)NC(=O)[C@H](C)NC(=O)[C@H](CO)NC(=O)[C@H](CC(C)C)NC(=O)[C@H](CCC(N)=O)NC(=O)[C@H](CC)NC(=O)[C@H](CC(C)C)NC(=O)[C@@H](NC(=O)[C@H](CCCN)NC(=O)[C@H](CCCNC(=N)N)NC(=O)[C@H](Cc1ccc(O)cc1)NC(=O)[C@H](CO)NC(=O)[C@H](CCC(N)=O)NC(=O)[C@@H](NC(=O)[C@H](Cc1ccccc1)NC(=O)[C@@H](NC(=O)[C@H](C)NC(=O)[C@H](CC(=O)O)NC(=O)[C@@H](C)NC(=O)[C@H](Cc1ccc(O)cc1)N(C)C(C)=O)[C@@H](C)CC)[C@@H](C)O)C(C)C)[C@@H](C)CC)C(=O)N[C@@H](CC(=O)O)C(=O)NCCCCNC(=N)N,"GH release, ELISA","male Sprague-Dawley rat, anaesthetised, serum","subcutaneous, 3 µg/kg, 30 min",,serum GH level,65.4 ± 10.1 ng/mL
COc1c2c(cc3oc(CO)cc(=O)c13)O[C@H](C(C)(C)O)C2,analgesia,mouse,"oral, 4 mg/kg, 2 h",,hot plate latency,15.5 ± 2.27 s
CCCCCCCOC(=O)Cc1c(C)n(C(=O)c2ccc(Cl)cc2)c2ccc(OC)cc12,acetic acid writhing test,BALB/c mouse,"intraperitoneal, 20 mg/kg",relative to: negative control,analgesia,63.5%
C[C@H](NC(=O)COC(=O)[C@H](C)NC(=O)CO)C(=O)O,,water,"pH 2, 37 °C",,depolymerization rate constant,0.002 h⁻¹
CCCC[C@H](NC(=O)[C@@H](NC(=O)[C@H](CC(=O)O)NC(=O)[C@H](CCC(N)=O)NC(=O)[C@H](CC(C)C)NC(=O)[C@H](CC(C)C)NC(=O)[C@H](CCCN)NC(=O)[C@H](CCCNC(=N)N)NC(=O)[C@H](C)NC(=O)[C@H](CO)NC(=O)[C@H](CC(C)C)NC(=O)[C@H](CCC(N)=O)NC(=O)[C@H](CC)NC(=O)[C@H](CC(C)C)NC(=O)[C@@H](NC(=O)[C@H](CCCN)NC(=O)[C@H](CCCNC(=N)N)NC(=O)[C@H](Cc1ccc(O)cc1)NC(=O)[C@H](CO)NC(=O)[C@H](CC(N)=O)NC(=O)[C@@H](NC(=O)[C@H](Cc1c(F)c(F)c(F)c(F)c1F)NC(=O)[C@@H](NC(=O)[C@H](C)NC(=O)[C@H](CC(=O)O)NC(=O)[C@@H](C)NC(=O)CCc1ccc(O)cc1)[C@@H](C)CC)[C@@H](C)O)C(C)C)[C@@H](C)CC)C(=O)N[C@@H](CO)C(=O)N[C@@H](CCCNC(=N)N)C(=O)NCCCC(N)=O,"GH release, ELISA","male Sprague-Dawley rat, anaesthetised, serum","subcutaneous, 3 µg/kg, 0 min",,serum GH level,61.7 ± 8.1 ng/mL
CC(C)c1cnc(-c2cc(Cl)ccc2F)cc1Nc1ccncc1C(=O)NC(CO)CO,item: pSMAD2,"4T1 tumour-bearing mouse, tumour",100 mg/kg twice daily,relative to: vehicle,maximum inhibition,93%
O=c1c(OCc2ccccc2)c(-c2ccc([N+](=O)[O-])cc2)oc2ccccc12,,diabetic rat,"7.5 mg/kg, p-nitrophenyl β-glucoside induced",,serum alanine aminotransferase,42.8 ± 3 IU
CC(C)C[C@@H]1NC(=O)[C@H](CS)NC(=O)[C@H](CCCCN)NC(=O)[C@H](CC(=O)O)N(C(=O)[C@@H](N)Cc2c[nH]c3ccccc23)CCCNC(=O)NCCCCN([C@@H](C)C(N)=O)C1=O,,DBA/1 mouse collagen-induced arthritis,"intraperitoneal, 360 pg/g weekly",relative to: PBS,arthritis severity score,no effect
C=CC(=O)N1C[C@H](C)N(c2nc(OC[C@@]34CCCN3C[C@H](F)C4)nc3c(F)c(-c4ccc(F)c5sc(N)c(C#N)c45)c(C(F)(F)F)cc23)C[C@H]1C,,"MIA PaCa-2 Matrigel plug, mouse","oral, 10 mg/kg single dose, 6 h",,pERK inhibition,73%
O=[N][Fe]1([N]=O)[S](CCO)[Fe]([N]=O)([N]=O)[S]1CCO,"western blot, item: BrdU","aged C57BL/6JNarl mice on Western diet, hippocampus",dose not given,relative to: Western diet alone,protein level,increased
O=S(=O)(c1ccccc1)N(CCc1nnc(S)o1)c1ccccc1,radiant heat tail flick,rat,100 mg/kg,,analgesic protection,68.2%
CC1=C(O)C(=O)C=C2C1=CC=C1[C@@]2(C)CC[C@@]2(C)[C@@H]3C[C@](C)(C(=O)NCCOCCOCCOCCOCC(=O)N[C@H](C(=O)N4C[C@H](O)C[C@H]4C(=O)N[C@@H](C)c4ccc(-c5scnc5C)cc4)C(C)(C)C)CC[C@]3(C)CC[C@]12C,flow cytometry,"mouse, B16-F10 melanoma model, blood","ip, 2 doses of 1.8 mg/kg",,monocytic MDSC (CD11b+Ly6C+),decreased
Cc1cc2c(cc1C1(c3ncc(C(=O)O)cn3)CC1)C(C)(C)CCC2(C)C,"RNA sequencing, item: Dlx2 mRNA","rat, brain","dose not given, 24 h, single dose",relative to: vehicle,log2 fold change,0.62
